# Measured values from different studies.
# Numbered parts are unrelated; each lists some results of a single study. Substitutions count along the parent as printed.
# Chain of UniProt Q9Y2H9 (whole entry, looked up): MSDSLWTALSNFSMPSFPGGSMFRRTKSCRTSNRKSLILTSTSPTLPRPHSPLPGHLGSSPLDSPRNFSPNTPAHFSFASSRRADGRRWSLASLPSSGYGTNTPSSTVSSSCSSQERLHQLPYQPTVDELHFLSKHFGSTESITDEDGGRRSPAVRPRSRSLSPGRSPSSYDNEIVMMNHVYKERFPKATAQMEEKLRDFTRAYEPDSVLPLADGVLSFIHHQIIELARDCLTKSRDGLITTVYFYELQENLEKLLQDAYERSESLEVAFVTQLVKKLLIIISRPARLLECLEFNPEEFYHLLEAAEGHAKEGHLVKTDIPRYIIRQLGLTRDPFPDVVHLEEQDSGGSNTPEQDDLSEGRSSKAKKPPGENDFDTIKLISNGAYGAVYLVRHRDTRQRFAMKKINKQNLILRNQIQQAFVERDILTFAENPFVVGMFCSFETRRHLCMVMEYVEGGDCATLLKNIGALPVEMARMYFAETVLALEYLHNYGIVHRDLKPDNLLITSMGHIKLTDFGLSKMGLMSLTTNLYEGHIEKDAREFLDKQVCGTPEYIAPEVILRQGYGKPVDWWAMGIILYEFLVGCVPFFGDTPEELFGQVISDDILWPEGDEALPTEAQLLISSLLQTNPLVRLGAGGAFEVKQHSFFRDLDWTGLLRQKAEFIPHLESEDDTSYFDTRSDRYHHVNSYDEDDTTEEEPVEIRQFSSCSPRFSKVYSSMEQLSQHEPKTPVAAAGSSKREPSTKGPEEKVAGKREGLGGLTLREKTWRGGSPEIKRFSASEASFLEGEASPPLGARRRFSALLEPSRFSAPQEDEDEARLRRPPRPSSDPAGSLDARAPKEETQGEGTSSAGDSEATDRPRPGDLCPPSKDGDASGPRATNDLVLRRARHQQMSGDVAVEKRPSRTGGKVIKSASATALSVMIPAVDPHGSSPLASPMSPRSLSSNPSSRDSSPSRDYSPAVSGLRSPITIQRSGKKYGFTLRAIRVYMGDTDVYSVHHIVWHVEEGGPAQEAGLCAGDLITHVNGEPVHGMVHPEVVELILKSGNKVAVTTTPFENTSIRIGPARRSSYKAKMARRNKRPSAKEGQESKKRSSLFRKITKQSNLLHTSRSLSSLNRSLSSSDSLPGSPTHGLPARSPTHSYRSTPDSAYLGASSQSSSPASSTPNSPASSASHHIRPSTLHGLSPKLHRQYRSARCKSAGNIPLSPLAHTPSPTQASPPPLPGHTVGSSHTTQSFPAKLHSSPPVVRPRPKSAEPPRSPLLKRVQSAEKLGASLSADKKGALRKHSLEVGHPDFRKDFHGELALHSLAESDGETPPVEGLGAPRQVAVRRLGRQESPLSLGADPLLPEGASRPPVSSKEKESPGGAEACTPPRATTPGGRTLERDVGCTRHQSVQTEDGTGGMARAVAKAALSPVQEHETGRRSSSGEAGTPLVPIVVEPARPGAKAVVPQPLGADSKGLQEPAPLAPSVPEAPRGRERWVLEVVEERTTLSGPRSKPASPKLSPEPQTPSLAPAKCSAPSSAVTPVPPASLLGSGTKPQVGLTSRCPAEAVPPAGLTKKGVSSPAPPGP

# Set 1 — method: RNA Bind-n-Seq; form: RNA; sample: in vitro; concentration: 365 nM; reference: no-protein control; direction: higher = stronger binding
# Target: RNA binding protein fox-1 homolog 2, RRM domain, GST-SBP tag (RBFOX2, Homo sapiens, UniProt O43251-10, residues 100-194)
# Setting: natural RNA segment, single round, ends assumed
# Constant ends, left off below: GGGAGUUCUACAGUCCGACGAUC … UGGAAUUCUCGGGUGCCAA
# Target sequence (chain): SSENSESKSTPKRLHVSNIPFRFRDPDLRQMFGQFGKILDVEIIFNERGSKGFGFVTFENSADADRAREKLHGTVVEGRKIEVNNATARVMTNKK
Strand,RBNS enrichment (R)
UUGUAUUACGAACAUAGGAGUGUCCACAUGUUGUUGUAACUCUGUCCUGCAAGAGCAGGUAUUCCAAUGACACUGGCCUGUGCUUAGCUGAGGAACUUCCAGCUUCAGAU,0.188
UGCAGUGGUUCCUAGGCCAUUCUUCAUCUGCUCUGGACAUCUCAGUCAUACCCAAUGCUCAGUGGAUCAUGACCAAACUCCUGUCAUGUGGAUGCACGUGAGUGGGUAGC,0.814
UGACCGUGAGGGCCAGAGAGAGCCUUCACGGACGGCGCUGGUGGGUGAGCCGAGCUGUGGUGGCGGCUGGUUUAAAAGGGAUCCAGUUUCCAGCUGCAGGUUUGUUAGAG,0.816
UUCCCUUUAGCACGUUUAAAGUUCUGUGUAUUUAAUUGUAAACUGUACUAGUCUGUGUGGGACUGUACACACUUUAUUUACUUCGUUUUGGUUAAGUUGGCUUCUGUUUC,8.14
AGACUCAUCCCCGUGGGCUAGGACAGGAGGCCACUAGUACUGAUGCCAAACCAGGCCUCCACCGACCCACCUGCCUGGAGAUUUCCUCUAUGUAGGCAACCCUGCCACUG,0.565
UUUUUAUGAAAAAAAAGGAAAAUGGUUUCCCAUUUGGUUUUAUAUGUGUUAAAUAAAUGUGUAAAGUAACCACCAAAUGUUAUUAGAAUUUUUCUUCUAGCAUUUAUAAU,0.586
AGAGUAGGGAGCCAGGGGGUGCUACAAAAAUAGAAUUCUGUACCCCAGUAAUCAACUAGUUUUCUAUUAAUGUGCUUGUCUGUUCUAAGAGUAGGAUUAACACAGGGGAA,0.46
AAGCAAAGGAUUCCAGGCUCCAGAAAAAAUGAAUGAACUCACCUUGACGUCAAUGCAAUUGAAUCACCGUUGUCAUUCAGCGAGCAACCAAUGUAGGAUUGCCCACAGUU,0.215

# Set 2 — method: competition protein-binding microarray; form: double-stranded DNA, one strand shown; sample: in vitro; concentration: 2 µM; with: Pho4 competitor, 0.05 µM; direction: higher = stronger binding; constant ends, left off below: … GTCTTGATTCGCTTGACGCTGCTG
# Target: Centromere-binding protein 1, full length, His-tagged (CBF1, Saccharomyces cerevisiae, UniProt P17106, residues 1-351)
# Chain of UniProt P17106 (whole entry, looked up): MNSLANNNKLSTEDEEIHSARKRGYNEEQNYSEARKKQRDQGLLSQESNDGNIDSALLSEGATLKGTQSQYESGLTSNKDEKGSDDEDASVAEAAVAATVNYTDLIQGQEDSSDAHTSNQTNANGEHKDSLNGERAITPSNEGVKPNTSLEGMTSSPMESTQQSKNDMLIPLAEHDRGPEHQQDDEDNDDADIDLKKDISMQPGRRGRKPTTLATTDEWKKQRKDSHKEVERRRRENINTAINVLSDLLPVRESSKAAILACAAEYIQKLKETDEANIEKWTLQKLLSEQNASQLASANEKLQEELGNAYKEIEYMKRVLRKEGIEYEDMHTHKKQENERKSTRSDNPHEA
# Setting: whole 60-bp probe, lowest competitor level
Strand,fluorescence intensity [a.u.]
GTCTTGTCTCATTGAATAGTGGGTGTCCCCACTTCA,76.7
GTCTTGTCTCATTGTCACAGGACTTTCCCCACTTCA,113
CTTTCCCGATCTTGGGAAGTGGGTGTAGCACATTTG,64.3
GATGACATTATGGTTAACATGATAAAGGATGAATTG,82.4
ATCATGTTCAGAACAACCGTGATGGAGAAAATGGAG,125
ACAAACTTTTAAAGCTTCGTGCTTTGGATCAACGAA,83.1
GTCTTGTCTCATTGTGGGGTGGGTGTCCCCACTTCA,88.2
CTTCTTCAGGGTTTGCACGTTGCCTTCATTCGGTTC,89.9

# Set 3 — target: CCNB1, cyclin fold, Cln2 fusion (human); method: yeast growth competition, sequencing; sample: yeast; setting: weak parent motif; reference: not given; direction: higher = stronger binding
# Starting sequence: CDKN1B docking peptide (human); PSACRNLFGPVDH
Change,normalised enrichment score
P1A,0.397
D12W,0.755
D12S,-0.0699
A3G,-0.0103
V11C,0.0468
P10M,0.159
P1M,0.594
V11Y,0.199

# Mixed results
SMILES,target,observed,method,concentration,quantity,result
COc1ccc2c(O[C@@H]3C[C@H]4C(=O)N[C@]5(C(=O)O)CC5/C=C\CCCCC[C@H](NC(=O)OC5CCCC5)C(=O)N4C3)cc(-c3csc(NC(=O)C(C)C)n3)nc2c1C (stereo partly shown),"Microtubule-associated serine/threonine-protein kinase 1 (MAST1, Homo sapiens, UniProt Q9Y2H9)",cell-free assay,competition with immobilised ligand,1 µM,remaining binding,98%

# A few entries again (set 1):
Strand,RBNS enrichment (R)
UGACCGUGAGGGCCAGAGAGAGCCUUCACGGACGGCGCUGGUGGGUGAGCCGAGCUGUGGUGGCGGCUGGUUUAAAAGGGAUCCAGUUUCCAGCUGCAGGUUUGUUAGAG,0.816
UUCCCUUUAGCACGUUUAAAGUUCUGUGUAUUUAAUUGUAAACUGUACUAGUCUGUGUGGGACUGUACACACUUUAUUUACUUCGUUUUGGUUAAGUUGGCUUCUGUUUC,8.14
AGACUCAUCCCCGUGGGCUAGGACAGGAGGCCACUAGUACUGAUGCCAAACCAGGCCUCCACCGACCCACCUGCCUGGAGAUUUCCUCUAUGUAGGCAACCCUGCCACUG,0.565
UUUUUAUGAAAAAAAAGGAAAAUGGUUUCCCAUUUGGUUUUAUAUGUGUUAAAUAAAUGUGUAAAGUAACCACCAAAUGUUAUUAGAAUUUUUCUUCUAGCAUUUAUAAU,0.586
